# Experimental data pooled from the literature.
# Parts stem from different laboratories: compare values within a part only. Positions count from the first letter of the parent shown.

# Series 1
# Target: CCNA1, cyclin fold, Cln2 fusion (human)
# Method: yeast growth competition, sequencing
# Sample: yeast
# Setting: weak parent motif
# Reference: not given
# Reading: higher = stronger binding
# Starting sequence: CDC25A docking peptide (human); PPHRRRLLFACSP
Variant,normalised enrichment score
R4W,-0.0871
R6D,0.132
R5T,0.208
C11K,0.0446
C11S,0.283
P13W,-0.084

# Series 2
# Target: Interferon regulatory factor 5, full length, phosphomimetic (IRF5, Homo sapiens, UniProt Q13568-2, residues 1-514, S451D/S453D/S456D/S462D)
# Method: protein-binding microarray
# Form: double-stranded DNA, one strand shown
# Sample: in vitro
# Tested at: 940 nM top
# Setting: 60-bp whole probe
# Added: salmon DNA 0.4 mg/ml
# Reference: random background probes
# Reading: higher = stronger binding
# Shared flanks, not repeated: GCCTAGCAC … GTCTTGATTCGCTTGACGCTGCTG
Sequence,fitted relative affinity
TTAGGTCTCGGACCGGGTTAGTGCTAG,0.764 z-score
AGTAATGACCTTCTCAGGAGGTGCTAG,-0.191 z-score
TTAGGTTTCGACACTGTGTTAGTGCTA,8.75 z-score
ATAGATATCAGTTTCGATTAGTGCTAG,8.29 z-score
TTTGAACTGGGGTTTCGATTAGTGCTA,5.7 z-score

# Series 3
# Target: Histone acetyltransferase KAT6A, winged helix 1, GST fusion (KAT6A, Homo sapiens, UniProt Q92794, residues 1-85)
# Method: protein binding microarray
# Form: double-stranded DNA, one strand shown
# Sample: in vitro
# Tested at: not given
# Setting: 8-mer, flanks averaged, mean of 2 arrays, mostly near background
# Reference: not given
# Reading: higher = stronger binding
# Target sequence (chain): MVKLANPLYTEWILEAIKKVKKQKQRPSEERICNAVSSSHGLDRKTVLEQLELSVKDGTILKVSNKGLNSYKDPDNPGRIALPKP
Sequence,E-score
CCCTTTCA,0.0662
TAAGGCCA,-0.0285
CTACGATA,-0.118
ACAGCTCT,-0.232
AGGTATTG,-0.0799
ACTCTTCG,-0.00044
GTGGCACA,-0.121
CCTGGGCC,0.0611

# Mixed results
Molecule,target,assay,test system,setting,scale,endpoint,result
"PhoQ, residues 284 288 289 292 302 303 SLCLSL","PhoP, residues 12 14 15 18 19 AQALL (Escherichia coli, UniProt P23836)","Sort-seq, measured: YFP reporter",E. coli,"PhoQ-PhoP variant library, added: 10 µM Mg2+","reference: high Mg2+ state, higher = stronger signaling",fold induction,5.62

# Some of these lines once more (series 3):
Sequence,E-score
ACAGCTCT,-0.232
